{"data": "Experimental data of several laboratories", "BPTF bromodomain": "Nucleosome-remodeling factor subunit BPTF, bromodomain (BPTF, Homo sapiens, UniProt Q12830)", "LGALS1": "Galectin-1 (LGALS1, Homo sapiens, UniProt P09382)", "note": "Numbers after ± are the reported error.", "chain of UniProt P09382 (whole entry, looked up)": "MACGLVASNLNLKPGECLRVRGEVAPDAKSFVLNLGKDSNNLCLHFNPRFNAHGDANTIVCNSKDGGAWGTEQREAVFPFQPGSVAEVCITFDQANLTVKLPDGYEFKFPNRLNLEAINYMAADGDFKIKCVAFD", "chain of UniProt Q6Q271 (whole entry, looked up)": "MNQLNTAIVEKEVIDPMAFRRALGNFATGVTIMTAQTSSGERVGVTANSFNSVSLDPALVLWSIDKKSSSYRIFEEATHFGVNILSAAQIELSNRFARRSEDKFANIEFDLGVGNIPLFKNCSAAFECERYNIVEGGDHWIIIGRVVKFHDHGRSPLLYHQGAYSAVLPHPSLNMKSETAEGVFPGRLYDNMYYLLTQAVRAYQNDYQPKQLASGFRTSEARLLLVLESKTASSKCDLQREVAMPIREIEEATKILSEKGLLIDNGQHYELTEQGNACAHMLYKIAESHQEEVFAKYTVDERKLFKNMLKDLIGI", "chain of UniProt Q13009 (whole entry, looked up)": "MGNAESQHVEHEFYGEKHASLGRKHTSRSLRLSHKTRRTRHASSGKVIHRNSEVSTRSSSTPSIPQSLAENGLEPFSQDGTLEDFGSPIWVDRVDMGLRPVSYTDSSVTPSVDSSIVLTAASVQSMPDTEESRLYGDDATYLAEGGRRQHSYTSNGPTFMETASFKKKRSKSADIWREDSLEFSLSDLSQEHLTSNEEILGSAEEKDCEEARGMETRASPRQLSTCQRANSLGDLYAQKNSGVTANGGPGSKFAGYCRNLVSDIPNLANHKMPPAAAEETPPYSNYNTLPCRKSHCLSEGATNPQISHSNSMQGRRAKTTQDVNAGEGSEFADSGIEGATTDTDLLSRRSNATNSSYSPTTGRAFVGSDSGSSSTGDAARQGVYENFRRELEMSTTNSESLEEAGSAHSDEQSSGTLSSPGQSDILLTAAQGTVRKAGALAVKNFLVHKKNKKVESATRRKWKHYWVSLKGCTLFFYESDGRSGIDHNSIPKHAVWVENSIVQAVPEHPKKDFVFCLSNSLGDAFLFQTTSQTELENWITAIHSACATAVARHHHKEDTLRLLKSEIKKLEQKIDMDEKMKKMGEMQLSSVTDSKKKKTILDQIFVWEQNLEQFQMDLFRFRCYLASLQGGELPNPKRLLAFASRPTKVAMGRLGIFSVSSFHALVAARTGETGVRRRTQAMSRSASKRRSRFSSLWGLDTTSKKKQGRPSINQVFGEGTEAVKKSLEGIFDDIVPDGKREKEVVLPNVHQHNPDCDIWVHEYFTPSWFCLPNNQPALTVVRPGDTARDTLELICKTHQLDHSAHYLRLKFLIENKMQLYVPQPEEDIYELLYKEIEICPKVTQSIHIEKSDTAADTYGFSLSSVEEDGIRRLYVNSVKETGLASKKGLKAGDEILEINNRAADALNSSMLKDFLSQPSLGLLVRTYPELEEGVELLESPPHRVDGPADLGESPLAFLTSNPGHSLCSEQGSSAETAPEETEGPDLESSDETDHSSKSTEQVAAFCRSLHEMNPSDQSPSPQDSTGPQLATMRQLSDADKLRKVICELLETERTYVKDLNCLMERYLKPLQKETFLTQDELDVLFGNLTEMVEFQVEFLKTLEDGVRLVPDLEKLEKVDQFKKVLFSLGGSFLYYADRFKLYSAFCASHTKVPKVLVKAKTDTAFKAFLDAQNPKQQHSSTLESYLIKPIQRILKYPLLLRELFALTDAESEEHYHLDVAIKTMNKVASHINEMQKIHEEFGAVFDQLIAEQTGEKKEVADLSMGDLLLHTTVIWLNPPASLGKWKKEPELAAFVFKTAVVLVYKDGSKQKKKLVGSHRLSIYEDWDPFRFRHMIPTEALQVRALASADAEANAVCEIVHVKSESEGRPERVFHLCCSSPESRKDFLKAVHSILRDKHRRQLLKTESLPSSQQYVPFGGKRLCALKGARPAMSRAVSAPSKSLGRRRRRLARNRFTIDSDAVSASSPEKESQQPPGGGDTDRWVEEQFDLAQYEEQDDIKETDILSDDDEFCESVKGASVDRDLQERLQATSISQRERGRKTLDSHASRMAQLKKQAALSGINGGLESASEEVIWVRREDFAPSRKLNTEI", "chain of UniProt Q9Y572 (whole entry, looked up)": "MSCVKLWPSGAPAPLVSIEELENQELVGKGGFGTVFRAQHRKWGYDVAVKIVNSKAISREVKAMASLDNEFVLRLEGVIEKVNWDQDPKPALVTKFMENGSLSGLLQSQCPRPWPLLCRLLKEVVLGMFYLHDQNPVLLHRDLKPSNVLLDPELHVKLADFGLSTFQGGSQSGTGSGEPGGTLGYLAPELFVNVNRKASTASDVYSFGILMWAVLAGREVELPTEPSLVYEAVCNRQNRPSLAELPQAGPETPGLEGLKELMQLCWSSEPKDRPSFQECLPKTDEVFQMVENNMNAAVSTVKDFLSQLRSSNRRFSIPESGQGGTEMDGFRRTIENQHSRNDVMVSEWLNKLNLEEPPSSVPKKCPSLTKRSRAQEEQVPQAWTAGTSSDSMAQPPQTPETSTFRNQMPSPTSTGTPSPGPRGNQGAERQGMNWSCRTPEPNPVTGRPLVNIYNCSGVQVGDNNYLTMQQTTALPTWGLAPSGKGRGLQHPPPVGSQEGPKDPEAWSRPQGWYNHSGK", "chain of UniProt O96013 (whole entry, looked up)": "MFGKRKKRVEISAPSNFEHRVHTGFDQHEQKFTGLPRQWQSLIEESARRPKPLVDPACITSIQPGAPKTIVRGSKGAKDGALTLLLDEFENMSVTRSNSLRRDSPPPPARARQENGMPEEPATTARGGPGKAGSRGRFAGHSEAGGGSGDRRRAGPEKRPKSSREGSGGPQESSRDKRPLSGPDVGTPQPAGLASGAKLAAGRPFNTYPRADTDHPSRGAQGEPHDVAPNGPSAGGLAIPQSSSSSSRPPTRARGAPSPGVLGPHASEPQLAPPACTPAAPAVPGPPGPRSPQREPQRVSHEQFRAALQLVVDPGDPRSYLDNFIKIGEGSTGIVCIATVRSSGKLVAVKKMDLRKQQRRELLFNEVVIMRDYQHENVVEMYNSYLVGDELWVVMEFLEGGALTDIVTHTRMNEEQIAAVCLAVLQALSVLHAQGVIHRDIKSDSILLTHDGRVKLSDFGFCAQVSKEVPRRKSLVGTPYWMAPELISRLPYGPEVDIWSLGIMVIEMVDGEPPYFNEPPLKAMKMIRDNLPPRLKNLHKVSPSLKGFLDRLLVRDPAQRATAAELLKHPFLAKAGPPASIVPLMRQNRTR", "chain of UniProt P55217 (whole entry, looked up)": "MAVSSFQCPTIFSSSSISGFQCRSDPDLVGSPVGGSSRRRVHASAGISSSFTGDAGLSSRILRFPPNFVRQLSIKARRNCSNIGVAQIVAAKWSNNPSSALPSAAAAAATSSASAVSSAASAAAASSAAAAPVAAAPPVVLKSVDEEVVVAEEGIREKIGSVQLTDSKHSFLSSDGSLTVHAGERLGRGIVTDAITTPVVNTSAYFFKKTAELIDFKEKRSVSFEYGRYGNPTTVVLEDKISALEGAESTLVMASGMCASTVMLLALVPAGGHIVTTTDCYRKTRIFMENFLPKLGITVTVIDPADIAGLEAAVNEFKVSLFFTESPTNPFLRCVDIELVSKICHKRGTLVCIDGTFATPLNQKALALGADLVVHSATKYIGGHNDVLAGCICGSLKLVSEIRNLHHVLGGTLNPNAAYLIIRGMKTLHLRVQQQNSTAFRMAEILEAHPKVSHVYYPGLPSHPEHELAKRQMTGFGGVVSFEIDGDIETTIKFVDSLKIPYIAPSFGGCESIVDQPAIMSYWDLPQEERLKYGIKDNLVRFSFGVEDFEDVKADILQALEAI", "chain of UniProt Q8N5H7 (whole entry, looked up)": "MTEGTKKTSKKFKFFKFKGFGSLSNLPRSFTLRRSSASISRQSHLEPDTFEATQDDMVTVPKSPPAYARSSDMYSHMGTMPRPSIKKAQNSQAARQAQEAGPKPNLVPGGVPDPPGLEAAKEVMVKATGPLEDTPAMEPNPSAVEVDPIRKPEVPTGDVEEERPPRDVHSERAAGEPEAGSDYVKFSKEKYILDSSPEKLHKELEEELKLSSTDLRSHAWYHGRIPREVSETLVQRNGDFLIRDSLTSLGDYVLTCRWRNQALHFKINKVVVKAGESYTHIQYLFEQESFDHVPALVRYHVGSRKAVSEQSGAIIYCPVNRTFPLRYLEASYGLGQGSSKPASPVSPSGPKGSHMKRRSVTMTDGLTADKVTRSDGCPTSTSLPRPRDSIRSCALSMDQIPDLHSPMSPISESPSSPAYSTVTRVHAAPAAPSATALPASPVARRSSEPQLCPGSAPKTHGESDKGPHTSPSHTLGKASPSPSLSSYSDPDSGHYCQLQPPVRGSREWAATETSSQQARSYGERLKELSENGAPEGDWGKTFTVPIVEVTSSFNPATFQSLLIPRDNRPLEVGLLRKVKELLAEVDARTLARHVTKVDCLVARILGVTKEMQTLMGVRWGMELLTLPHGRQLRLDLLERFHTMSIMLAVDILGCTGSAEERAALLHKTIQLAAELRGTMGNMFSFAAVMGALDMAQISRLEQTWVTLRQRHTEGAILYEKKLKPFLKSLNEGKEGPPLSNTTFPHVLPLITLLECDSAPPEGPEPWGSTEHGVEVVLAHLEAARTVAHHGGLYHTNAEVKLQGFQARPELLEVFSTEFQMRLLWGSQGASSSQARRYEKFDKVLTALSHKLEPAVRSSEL", "chain of UniProt P40337 (whole entry, looked up)": "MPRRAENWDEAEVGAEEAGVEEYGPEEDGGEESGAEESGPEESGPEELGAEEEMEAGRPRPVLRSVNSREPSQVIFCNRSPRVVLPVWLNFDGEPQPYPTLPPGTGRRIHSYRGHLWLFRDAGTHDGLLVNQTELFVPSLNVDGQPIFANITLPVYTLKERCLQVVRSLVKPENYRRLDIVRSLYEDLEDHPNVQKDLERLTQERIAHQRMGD", "chain of UniProt P51452 (whole entry, looked up)": "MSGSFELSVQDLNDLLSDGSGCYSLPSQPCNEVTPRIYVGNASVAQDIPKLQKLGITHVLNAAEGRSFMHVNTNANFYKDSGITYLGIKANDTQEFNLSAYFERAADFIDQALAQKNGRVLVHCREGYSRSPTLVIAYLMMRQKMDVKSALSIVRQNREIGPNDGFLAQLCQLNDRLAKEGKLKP"}
{"Structure (SMILES)": "O=[N+]([O-])c1cc(Br)cc([N+](=O)[O-])c1NS(=O)(=O)c1ccc(Br)cc1", "target": "PYL1 (Arabidopsis thaliana, UniProt Q8VZS8)", "test": "binding, ITC", "setting": "pH 7.5", "Kd [µM]": 35.1}
{"Structure (SMILES)": "CC1=CC(C)=[N+]2C1=Cc1ccc(CCC(=O)NCCOCCOCCOCCOCC(=O)N[C@H](C(=O)N3C[C@H](O)C[C@H]3C(=O)NCc3ccc(-c4scnc4C)cc3)C(C)(C)C)n1[B-]2(F)F", "target": "von Hippel-Lindau disease tumor suppressor, with elongin B/C (VHL, Homo sapiens, UniProt P40337)", "test": "binding, TR-FRET", "setting": "90 to 300 min, total binding", "Kd [µM]": "~0.003"}
{"Structure (SMILES)": "O=C(O)c1ccc(/C=C2\\SC(=S)N(Cc3cccc(C(F)(F)F)c3)C2=O)cc1", "target": "NLRP3 (Homo sapiens, UniProt Q96P20)", "test": "binding, microscale thermophoresis", "Kd [µM]": "~0.5"}
{"Structure (SMILES)": "O=C1c2ccc(O)cc2-c2c(-c3ccc(O)cc3)oc3cc(O)cc1c23", "target": "STUB1 (Homo sapiens, UniProt Q9UNE7)", "test": "binding, fluorescence polarization", "Kd [µM]": 9.6}
{"Structure (SMILES)": "CC(=O)NCCCC[C@H](NC(=O)CNC(=O)CNC(=O)[C@H](C)NC(=O)[C@@H](N)Cc1ccc(O)cc1)C(=O)N[C@@H](C)C(=O)NCC(=O)N[C@@H](CCCCN)C(=O)N[C@@H](CC(=O)O)C(=O)N[C@@H](CO)C(=O)NCC(=O)N[C@@H](CCCCN)C(=O)N[C@@H](C)C(=O)N[C@@H](CCCCN)C(=O)N[C@@H](C)C(=O)N[C@@H](CCCCN)C(=O)N[C@@H](C)C(=O)N[C@H](C(=O)N[C@@H](CO)C(=O)N[C@@H](CCCNC(=N)N)C(N)=O)C(C)C", "target": "BPTF bromodomain", "test": "bromodomain binding, PrOF NMR titration", "setting": "pH 7.4, 5-fluorotryptophan-labelled bromodomain, 40-50 µM", "Kd [µM]": 1290}
{"Structure (SMILES)": "CC#Cc1cc2c3c(c1)O[C@H](CO)[C@H](O)[C@@H]3OC2", "target": "Galectin-9 (LGALS9, Homo sapiens, UniProt O00182)", "test": "cell-free assay, FP", "Kd [µM]": "> 2000"}
{"Structure (SMILES)": "C[C@H](N)C(=O)N[C@@H](CCCNC(=N)N)C(=O)N[C@H](C(=O)N[C@@H](CCCCN)C(=O)O)[C@@H](C)OP(=O)(O)O", "target": "BIRC5 (Homo sapiens, UniProt O15392)", "test": "isothermal titration calorimetry", "setting": "pH 7.8, 25 °C, with: histone H3 peptide", "Kd [µM]": "61.7 ± 8.5"}
{"Structure (SMILES)": "CC(C)C[C@H](NC(=O)[C@H](C)NC(=O)[C@H](CC(C)C)NC(=O)[C@@H]1CCCN1C(=O)[C@H](Cc1ccccc1)NC(=O)[C@H](CC(N)=O)NC(=O)[C@H](Cc1ccc(OP(=O)(O)O)cc1)NC(=O)[C@H](Cc1ccc(O)cc1)NC(=O)[C@H](CC(=O)O)NC(=O)[C@H](CCCNC(=N)N)NC(=O)[C@@H](N)CO)C(=O)N[C@@H](C)C(=O)N[C@@H](CC(=O)O)C(=O)O", "target": "SH2 domain-containing protein 3C, SH2 domain (SH2D3C, Homo sapiens, UniProt Q8N5H7)", "test": "binding, fluorescence polarization", "setting": "phosphopeptide probe", "Kd [µM]": 2.28}
{"Structure (SMILES)": "CCc1cc2c3c(c1CC)O[C@H](CO)[C@H](O)[C@@H]3OC2", "target": "LGALS1", "test": "ligand displacement, FP", "Kd [µM]": 2900}
{"Structure (SMILES)": "O=C(O)C(=O)N1CCc2cccc(F)c2C1", "target": "DUSP3 (Homo sapiens, UniProt P51452)", "test": "binding, isothermal titration calorimetry", "Kd [µM]": "2000 ± 1000"}
{"Structure (SMILES)": "CC[C@H](C)[C@H](NC(=O)[C@H](CCCCN)NC(=O)[C@H](CCCCN)NC(=O)[C@@H](NC(=O)[C@H](CCC(=O)O)NC(=O)[C@H](CCC(=O)O)NC(=O)[C@H](CCC(=O)O)NC(=O)[C@H](CO)NC(=O)[C@H](CC(C)C)NC(=O)[C@H](CC(=O)O)NC(=O)[C@H](CC(C)C)NC(=O)CNC(=O)[C@H](CCCNC(=N)N)NC(=O)[C@H](CC(C)C)NC(=O)[C@H](CO)NC(=O)CNC(=O)CNC(=O)CNC(=O)CCCC[C@@H]1SC[C@@H]2NC(=O)N[C@@H]21)C(C)C)C(=O)N[C@@H](CC(C)C)C(=O)N[C@@H](CC(=O)O)C(=O)N[C@@H](CCC(=O)O)C(=O)N[C@H](C(=O)N[C@H](C(=O)N[C@@H](CCCCN)C(=O)N[C@@H](CC(=O)O)C(=O)N[C@@H](C)C(=O)N[C@@H](CO)C(=O)N[C@@H](CC(=O)O)C(=O)O)C(C)C)[C@@H](C)CC", "target": "Fab B11 antibody (human)", "test": "binding, biolayer interferometry", "setting": "with: biotinylated peptide on tips", "Kd [µM]": "0.02 ± 0.001"}
{"Structure (SMILES)": "OC[C@H]1Oc2cc(Cc3ccccc3)cc3c2[C@@H](OC3)[C@H]1O", "target": "LGALS1", "test": "ligand displacement, FP", "Kd [µM]": 140}
{"Structure (SMILES)": "CCCN(CC(=O)N(CCC)CC(=O)N(CCC)CC(=O)N(CCC)CC(=O)N(CC(N)=O)Cc1cn(CCCNC(=O)CCCOc2cccc(-c3nc4ccc(-c5nc6ccc(N7CCN(C)CC7)cc6[nH]5)cc4[nH]3)c2)nn1)C(=O)CNCc1cn(CCCNC(=O)CCCOc2cccc(-c3nc4ccc(-c5nc6ccc(N7CCN(C)CC7)cc6[nH]5)cc4[nH]3)c2)nn1", "target": "r(CUG)109 RNA hairpin", "test": "binding, fluorescence", "Kd [µM]": "0.1 ± 0.013"}
{"Structure (SMILES)": "C#CCN(CC(=O)N(CCOC)CC(=O)N(CCOC)CC(N)=O)C(=O)CN(CCOC)C(=O)CN(CCC(C)C)C(=O)CN(Cc1ccc(S(N)(=O)=O)cc1)C(=O)CN(CCCCN)C(=O)[C@H](CC(C)C)NCc1ccccc1", "target": "MMP14 (Homo sapiens, UniProt P50281)", "test": "binding, FP", "Kd [µM]": 1.3}
{"Structure (SMILES)": "CC[C@H](C)[C@H](NC(=O)[C@H](CCCCN)NC(=O)[C@H](C)NC(=O)[C@@H](NC(=O)[C@H](CCC(=O)O)NC(=O)[C@H](CCC(=O)O)NC(=O)[C@H](CCC(=O)O)NC(=O)[C@H](CO)NC(=O)[C@H](CC(C)C)NC(=O)[C@H](CC(=O)O)NC(=O)[C@H](CC(C)C)NC(=O)CNC(=O)[C@H](CCCNC(=N)N)NC(=O)[C@H](CC(C)C)NC(=O)[C@H](CO)NC(=O)CNC(=O)CNC(=O)CNC(=O)CCCC[C@@H]1SC[C@@H]2NC(=O)N[C@@H]21)C(C)C)C(=O)N[C@@H](CC(C)C)C(=O)N[C@@H](CC(=O)O)C(=O)N[C@@H](CCC(=O)O)C(=O)N[C@H](C(=O)N[C@H](C(=O)N[C@@H](CCCCN)C(=O)N[C@@H](CC(=O)O)C(=O)O)C(C)C)[C@@H](C)CC", "target": "Fab B11 antibody (human)", "test": "binding, biolayer interferometry", "setting": "with: biotinylated peptide on tips", "Kd [µM]": "0.25 ± 0.008"}
{"Structure (SMILES)": "O=C(Cc1cccc(C(F)(F)F)c1)Nc1cc(Oc2cc3sc(NC(=O)C4CC4)nc3cc2Br)ccc1F", "target": "RIPK3 (Homo sapiens, UniProt Q9Y572)", "test": "binding, competition with immobilised ligand", "Kd [µM]": "> 5"}
{"Structure (SMILES)": "O=C(O)Cc1ccc(O)cc1", "target": "p-hydroxyphenylacetate 3-hydroxylase, reductase component (C1-hpah, Acinetobacter baumannii, UniProt Q6Q271)", "test": "NADH oxidation, allosteric activator, H2O2 amperometry", "setting": "pH 7, with: NADH 50 µM", "Kd [µM]": 103}
{"Structure (SMILES)": "CC(=O)NCCCC[C@H](NC(=O)CNC(=O)[C@H](CO)NC(=O)[C@H](CC(=O)O)NC(=O)[C@H](CCCCN)NC(=O)CNC(=O)[C@H](C)NC(=O)[C@H](CCCCN)NC(=O)CNC(=O)CNC(=O)[C@H](C)NC(=O)[C@@H](N)Cc1ccc(O)cc1)C(=O)N[C@@H](C)C(=O)N[C@@H](CCCCN)C(=O)N[C@@H](C)C(=O)N[C@@H](CCCCNC(C)=O)C(=O)N[C@@H](C)C(=O)N[C@H](C(=O)N[C@@H](CO)C(=O)N[C@@H](CCCNC(=N)N)C(N)=O)C(C)C", "target": "BPTF bromodomain", "test": "bromodomain binding, PrOF NMR titration", "setting": "pH 7.4, 5-fluorotryptophan-labelled bromodomain, 40-50 µM", "Kd [µM]": 880}
{"Structure (SMILES)": "Cc1cc(N2CC[C@@](C#N)(C3(C)CC3)C2=O)cc(C(=O)NCc2cc(F)cc(-c3cnn(C)c3)c2)n1", "target": "Proline--tRNA ligase (Plasmodium falciparum, UniProt Q8I5R7)", "test": "binding, MST", "Kd [µM]": 0.288}
{"Structure (SMILES)": "CCNC(=O)c1ccc(CNC(=O)Cn2cc(-c3c(C)noc3C)cn2)cc1", "target": "Bromodomain-containing protein 4, BD1 (BRD4, Homo sapiens, UniProt O60885)", "test": "binding, SPR", "Kd [µM]": 35}
{"Structure (SMILES)": "CC(=O)NCCCC[C@H](NC(=O)CNC(=O)[C@H](C)NC(=O)[C@H](CCCCN)NC(=O)CNC(=O)CNC(=O)[C@H](C)NC(=O)[C@@H](N)Cc1ccc(O)cc1)C(=O)N[C@@H](CC(=O)O)C(=O)N[C@@H](CO)C(=O)NCC(=O)N[C@@H](CCCCN)C(=O)N[C@@H](C)C(=O)N[C@@H](CCCCN)C(=O)N[C@H](C(=O)N[C@@H](CCCCNC(C)=O)C(=O)N[C@@H](C)C(=O)N[C@H](C(=O)N[C@@H](CO)C(=O)N[C@@H](CCCNC(=N)N)C(N)=O)C(C)C)[C@@H](C)O", "target": "BPTF bromodomain", "test": "bromodomain binding, PrOF NMR titration", "setting": "pH 7.4, 5-fluorotryptophan-labelled bromodomain, 40-50 µM", "Kd [µM]": 750}
{"Structure (SMILES)": "COc1cccc(C(=O)Nc2cccc(-c3cn(Cc4ccccc4)nn3)c2)c1", "target": "Cystathionine gamma-synthase 1, chloroplastic (CGS1, Arabidopsis thaliana, UniProt P55217)", "test": "binding, microscale thermophoresis", "Kd [µM]": 0.182}
{"Structure (SMILES)": "C[C@H](NC(=O)[C@H](Cc1ccc(O)cc1)NC(=O)[C@H](Cc1ccccc1)NC(=O)[C@H](CCC(=O)O)NC(=O)[C@H](CC(N)=O)NC(=O)[C@@H](NC(=O)[C@@H]1CCCN1C(=O)[C@H](C)NS(=O)(=O)c1cccc2c(N(C)C)cccc12)[C@@H](C)O)C(=O)O", "target": "Rho guanine nucleotide exchange factor TIAM1, PDZ domain (TIAM1, Homo sapiens, UniProt Q13009)", "test": "fluorescence anisotropy", "setting": "25 °C, PDZ domain", "Kd [µM]": "397 ± 17"}
{"Structure (SMILES)": "CN1CCC(NC(=O)c2ccc(-c3cc(-c4ccc(F)cc4)c4oc5c(c4c3)CCN(C(=O)/C=C/c3ccc(N)nc3)C5)nn2)C(F)(F)C1 (stereo not drawn)", "target": "PAK4 (Homo sapiens, UniProt O96013)", "test": "binding to kinase domain, surface plasmon resonance", "Kd [µM]": 2.35}
{"note": "Repeated from above:"}
{"Structure (SMILES)": "CC(=O)NCCCC[C@H](NC(=O)CNC(=O)[C@H](C)NC(=O)[C@H](CCCCN)NC(=O)CNC(=O)CNC(=O)[C@H](C)NC(=O)[C@@H](N)Cc1ccc(O)cc1)C(=O)N[C@@H](CC(=O)O)C(=O)N[C@@H](CO)C(=O)NCC(=O)N[C@@H](CCCCN)C(=O)N[C@@H](C)C(=O)N[C@@H](CCCCN)C(=O)N[C@H](C(=O)N[C@@H](CCCCNC(C)=O)C(=O)N[C@@H](C)C(=O)N[C@H](C(=O)N[C@@H](CO)C(=O)N[C@@H](CCCNC(=N)N)C(N)=O)C(C)C)[C@@H](C)O", "target": "BPTF bromodomain", "test": "bromodomain binding, PrOF NMR titration", "setting": "pH 7.4, 5-fluorotryptophan-labelled bromodomain, 40-50 µM", "Kd [µM]": 750}
{"Structure (SMILES)": "CN1CCC(NC(=O)c2ccc(-c3cc(-c4ccc(F)cc4)c4oc5c(c4c3)CCN(C(=O)/C=C/c3ccc(N)nc3)C5)nn2)C(F)(F)C1 (stereo not drawn)", "target": "PAK4 (Homo sapiens, UniProt O96013)", "test": "binding to kinase domain, surface plasmon resonance", "Kd [µM]": 2.35}
{"Structure (SMILES)": "CC[C@H](C)[C@H](NC(=O)[C@H](CCCCN)NC(=O)[C@H](CCCCN)NC(=O)[C@@H](NC(=O)[C@H](CCC(=O)O)NC(=O)[C@H](CCC(=O)O)NC(=O)[C@H](CCC(=O)O)NC(=O)[C@H](CO)NC(=O)[C@H](CC(C)C)NC(=O)[C@H](CC(=O)O)NC(=O)[C@H](CC(C)C)NC(=O)CNC(=O)[C@H](CCCNC(=N)N)NC(=O)[C@H](CC(C)C)NC(=O)[C@H](CO)NC(=O)CNC(=O)CNC(=O)CNC(=O)CCCC[C@@H]1SC[C@@H]2NC(=O)N[C@@H]21)C(C)C)C(=O)N[C@@H](CC(C)C)C(=O)N[C@@H](CC(=O)O)C(=O)N[C@@H](CCC(=O)O)C(=O)N[C@H](C(=O)N[C@H](C(=O)N[C@@H](CCCCN)C(=O)N[C@@H](CC(=O)O)C(=O)N[C@@H](C)C(=O)N[C@@H](CO)C(=O)N[C@@H](CC(=O)O)C(=O)O)C(C)C)[C@@H](C)CC", "target": "Fab B11 antibody (human)", "test": "binding, biolayer interferometry", "setting": "with: biotinylated peptide on tips", "Kd [µM]": "0.02 ± 0.001"}
